{"data": "Results pooled from the literature", "note": "Each numbered part is a random draw from the data of one study; scales do not carry over between parts.", "chain of UniProt Q8NE63 (whole entry, looked up)": "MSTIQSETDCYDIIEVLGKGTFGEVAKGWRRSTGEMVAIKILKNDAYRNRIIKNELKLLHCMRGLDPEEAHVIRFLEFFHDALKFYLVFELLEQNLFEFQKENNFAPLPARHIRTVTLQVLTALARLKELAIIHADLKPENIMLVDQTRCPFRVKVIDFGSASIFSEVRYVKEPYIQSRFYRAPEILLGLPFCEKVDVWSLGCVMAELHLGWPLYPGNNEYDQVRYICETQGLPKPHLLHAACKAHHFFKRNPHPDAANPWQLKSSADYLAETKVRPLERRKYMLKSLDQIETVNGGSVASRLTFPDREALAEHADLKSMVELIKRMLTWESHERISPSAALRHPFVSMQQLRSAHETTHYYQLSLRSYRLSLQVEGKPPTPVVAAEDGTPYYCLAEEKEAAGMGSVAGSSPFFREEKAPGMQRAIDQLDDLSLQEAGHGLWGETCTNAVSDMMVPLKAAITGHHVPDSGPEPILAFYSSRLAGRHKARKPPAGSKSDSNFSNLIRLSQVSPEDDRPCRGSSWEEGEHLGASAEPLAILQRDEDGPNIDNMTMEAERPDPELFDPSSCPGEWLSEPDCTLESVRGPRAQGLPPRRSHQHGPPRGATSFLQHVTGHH", "chain of UniProt P30530 (whole entry, looked up)": "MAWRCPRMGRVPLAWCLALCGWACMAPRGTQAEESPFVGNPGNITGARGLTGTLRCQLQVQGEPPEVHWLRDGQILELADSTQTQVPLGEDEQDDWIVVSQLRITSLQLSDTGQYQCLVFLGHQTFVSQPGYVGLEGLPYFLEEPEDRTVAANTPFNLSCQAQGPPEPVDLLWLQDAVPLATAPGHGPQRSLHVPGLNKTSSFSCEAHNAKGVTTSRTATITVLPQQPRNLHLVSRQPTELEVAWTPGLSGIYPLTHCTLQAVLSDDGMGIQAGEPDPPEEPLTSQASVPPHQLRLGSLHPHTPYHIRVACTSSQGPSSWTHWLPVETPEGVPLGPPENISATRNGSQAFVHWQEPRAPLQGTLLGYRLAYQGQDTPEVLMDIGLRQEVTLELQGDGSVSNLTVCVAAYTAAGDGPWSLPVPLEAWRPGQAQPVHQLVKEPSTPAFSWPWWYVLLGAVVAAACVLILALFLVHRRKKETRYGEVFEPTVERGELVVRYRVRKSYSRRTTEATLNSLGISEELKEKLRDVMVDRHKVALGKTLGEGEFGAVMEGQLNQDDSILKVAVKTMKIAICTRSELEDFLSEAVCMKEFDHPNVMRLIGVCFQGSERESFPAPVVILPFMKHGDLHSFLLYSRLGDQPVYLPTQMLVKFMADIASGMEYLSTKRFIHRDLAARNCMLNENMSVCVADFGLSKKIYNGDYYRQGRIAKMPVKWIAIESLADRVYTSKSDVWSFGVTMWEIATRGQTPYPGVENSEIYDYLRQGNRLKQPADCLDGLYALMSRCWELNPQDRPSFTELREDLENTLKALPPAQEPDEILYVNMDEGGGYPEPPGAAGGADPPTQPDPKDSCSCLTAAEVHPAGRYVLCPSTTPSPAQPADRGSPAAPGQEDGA", "chain of UniProt O75385 (whole entry, looked up)": "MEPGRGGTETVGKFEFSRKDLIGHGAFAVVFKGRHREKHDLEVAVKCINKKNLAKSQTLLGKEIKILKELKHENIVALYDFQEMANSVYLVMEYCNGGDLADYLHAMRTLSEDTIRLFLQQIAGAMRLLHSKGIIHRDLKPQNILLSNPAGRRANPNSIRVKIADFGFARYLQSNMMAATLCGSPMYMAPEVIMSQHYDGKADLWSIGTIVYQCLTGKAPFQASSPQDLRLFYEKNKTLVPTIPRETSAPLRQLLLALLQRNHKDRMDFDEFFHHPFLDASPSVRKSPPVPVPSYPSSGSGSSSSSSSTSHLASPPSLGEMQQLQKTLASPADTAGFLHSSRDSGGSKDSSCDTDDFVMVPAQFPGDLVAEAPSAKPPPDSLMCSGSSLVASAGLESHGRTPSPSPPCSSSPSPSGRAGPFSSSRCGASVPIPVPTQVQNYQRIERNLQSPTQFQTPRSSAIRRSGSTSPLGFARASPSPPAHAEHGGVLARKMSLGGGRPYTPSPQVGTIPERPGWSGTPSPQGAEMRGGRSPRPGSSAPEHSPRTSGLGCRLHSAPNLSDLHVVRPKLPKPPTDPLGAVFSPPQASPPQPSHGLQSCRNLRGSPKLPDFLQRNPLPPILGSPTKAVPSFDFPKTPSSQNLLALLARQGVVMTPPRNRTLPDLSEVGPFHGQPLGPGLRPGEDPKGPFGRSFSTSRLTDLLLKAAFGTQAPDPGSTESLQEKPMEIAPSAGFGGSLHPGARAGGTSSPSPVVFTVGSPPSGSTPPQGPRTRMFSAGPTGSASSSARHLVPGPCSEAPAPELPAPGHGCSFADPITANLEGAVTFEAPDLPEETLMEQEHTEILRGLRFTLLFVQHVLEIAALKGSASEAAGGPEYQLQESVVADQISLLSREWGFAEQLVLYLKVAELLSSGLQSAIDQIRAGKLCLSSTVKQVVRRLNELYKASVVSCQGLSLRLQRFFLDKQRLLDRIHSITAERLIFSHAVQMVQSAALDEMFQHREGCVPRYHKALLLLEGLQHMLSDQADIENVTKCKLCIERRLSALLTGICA", "chain of UniProt Q16816 (whole entry, looked up)": "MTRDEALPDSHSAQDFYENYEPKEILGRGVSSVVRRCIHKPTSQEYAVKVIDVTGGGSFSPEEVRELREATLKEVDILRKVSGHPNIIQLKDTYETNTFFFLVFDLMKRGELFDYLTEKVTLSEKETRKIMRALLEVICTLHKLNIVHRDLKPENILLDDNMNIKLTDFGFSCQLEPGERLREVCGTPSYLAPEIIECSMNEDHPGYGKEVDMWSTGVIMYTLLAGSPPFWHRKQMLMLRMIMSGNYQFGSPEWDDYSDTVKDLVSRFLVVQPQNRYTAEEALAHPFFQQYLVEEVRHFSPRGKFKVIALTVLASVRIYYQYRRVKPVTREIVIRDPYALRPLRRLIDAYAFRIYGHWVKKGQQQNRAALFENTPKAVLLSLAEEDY", "chain of UniProt Q15835 (whole entry, looked up)": "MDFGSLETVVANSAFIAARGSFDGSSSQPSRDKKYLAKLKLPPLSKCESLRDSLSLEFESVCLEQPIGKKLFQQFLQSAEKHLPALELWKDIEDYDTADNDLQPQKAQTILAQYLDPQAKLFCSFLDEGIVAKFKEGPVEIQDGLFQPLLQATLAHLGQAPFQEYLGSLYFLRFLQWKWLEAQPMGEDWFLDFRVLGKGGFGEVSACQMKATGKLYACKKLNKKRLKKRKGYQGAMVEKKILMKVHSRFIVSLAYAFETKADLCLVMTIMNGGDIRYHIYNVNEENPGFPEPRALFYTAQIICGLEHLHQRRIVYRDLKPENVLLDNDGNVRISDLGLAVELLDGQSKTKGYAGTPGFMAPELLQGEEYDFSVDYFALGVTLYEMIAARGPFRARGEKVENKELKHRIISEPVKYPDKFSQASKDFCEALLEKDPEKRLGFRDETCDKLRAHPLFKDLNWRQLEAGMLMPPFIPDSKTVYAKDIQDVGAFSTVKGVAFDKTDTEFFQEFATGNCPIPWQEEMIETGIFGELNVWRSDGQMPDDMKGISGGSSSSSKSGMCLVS", "chain of UniProt Q00534 (whole entry, looked up)": "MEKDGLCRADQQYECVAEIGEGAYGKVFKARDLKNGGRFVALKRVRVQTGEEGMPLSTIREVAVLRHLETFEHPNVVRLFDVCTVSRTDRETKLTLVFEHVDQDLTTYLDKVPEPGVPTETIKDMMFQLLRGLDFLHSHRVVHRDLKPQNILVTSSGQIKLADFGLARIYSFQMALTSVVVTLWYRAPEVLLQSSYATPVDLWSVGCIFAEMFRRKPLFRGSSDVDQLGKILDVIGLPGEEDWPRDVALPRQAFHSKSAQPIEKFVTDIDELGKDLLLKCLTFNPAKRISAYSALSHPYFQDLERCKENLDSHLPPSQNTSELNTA"}
{"data": "Sample 1", "Compound": "CC1=C(C#N)[C@@H](c2ccc3[nH]nc(C)c3c2)C(C#N)=C(c2ccc(Cl)cc2)N1", "concentration": "1 µM"}
{"target": "Mast/stem cell growth factor receptor Kit (KIT, Homo sapiens, UniProt P10721, V559D)", "assay": "cell-free assay, competition with immobilised ligand", "remaining binding": "100%"}
{"target": "Rhodopsin kinase GRK1 (GRK1, Homo sapiens, UniProt Q15835)", "assay": "cell-free assay, competition with immobilised ligand", "remaining binding": "65.5%"}
{"target": "Serine/threonine-protein kinase MARK1 (MARK1, Homo sapiens, UniProt Q9P0L2)", "assay": "cell-free assay, competition with immobilised ligand", "remaining binding": "91.1%"}
{"target": "Atypical kinase COQ8A, mitochondrial (COQ8A, Homo sapiens, UniProt Q8NI60)", "assay": "cell-free assay, competition with immobilised ligand", "remaining binding": "97.8%"}
{"target": "STE20-like serine/threonine-protein kinase (SLK, Homo sapiens, UniProt Q9H2G2)", "assay": "cell-free assay, competition with immobilised ligand", "remaining binding": "100%"}
{"target": "Ephrin type-A receptor 4 (EPHA4, Homo sapiens, UniProt P54764)", "assay": "cell-free assay, competition with immobilised ligand", "remaining binding": "96.4%"}
{"target": "Serine/threonine-protein kinase DCLK1 (DCLK1, Homo sapiens, UniProt O15075)", "assay": "cell-free assay, competition with immobilised ligand", "remaining binding": "79.2%"}
{"target": "Serine/threonine-protein kinase ULK1 (ULK1, Homo sapiens, UniProt O75385)", "assay": "cell-free assay, competition with immobilised ligand", "remaining binding": "100%"}
{"target": "Phosphatidylinositol 4,5-bisphosphate 3-kinase catalytic subunit alpha isoform (PIK3CA, Homo sapiens, UniProt P42336, I800L)", "assay": "cell-free assay, competition with immobilised ligand", "remaining binding": "100%"}
{"target": "NUAK family SNF1-like kinase 1 (NUAK1, Homo sapiens, UniProt O60285)", "assay": "cell-free assay, competition with immobilised ligand", "remaining binding": "100%"}
{"target": "Serine/threonine-protein kinase ULK2 (ULK2, Homo sapiens, UniProt Q8IYT8)", "assay": "cell-free assay, competition with immobilised ligand", "remaining binding": "100%"}
{"target": "Receptor-type tyrosine-protein kinase FLT3 (FLT3, Homo sapiens, UniProt P36888, F691L/ITD)", "assay": "cell-free assay, competition with immobilised ligand", "remaining binding": "100%"}
{"target": "Homeodomain-interacting protein kinase 4 (HIPK4, Homo sapiens, UniProt Q8NE63)", "assay": "cell-free assay, competition with immobilised ligand", "remaining binding": "88.1%"}
{"target": "Platelet-derived growth factor receptor alpha (PDGFRA, Homo sapiens, UniProt P16234)", "assay": "cell-free assay, competition with immobilised ligand", "remaining binding": "100%"}
{"target": "Phosphatidylinositol 3-kinase C2 domain-containing subunit gamma (PIK3C2G, Homo sapiens, UniProt O75747)", "assay": "cell-free assay, competition with immobilised ligand", "remaining binding": "93.9%"}
{"target": "Serine/threonine-protein kinase MRCK gamma (CDC42BPG, Homo sapiens, UniProt Q6DT37)", "assay": "competition binding", "remaining binding": "93.6%"}
{"data": "Sample 2", "Compound": "CC(C)(C)c1nc2c3cc[nH]c(=O)c3c3cc(F)ccc3c2[nH]1", "observed": "enzyme activity", "action": "inhibitor", "concentration": "0.5 µM", "relative to": "control"}
{"target": "Cyclin-dependent kinase 1, with cyclin B (CDK1, Homo sapiens, UniProt P06493)", "remaining activity": "74.9%"}
{"target": "Cyclin-dependent kinase 6, with cyclin D3 (CDK6, Homo sapiens, UniProt Q00534)", "remaining activity": "87.8%"}
{"target": "Phosphorylase b kinase gamma catalytic chain, skeletal muscle/heart isoform (PHKG1, Homo sapiens, UniProt Q16816)", "remaining activity": "34.5%"}
{"target": "Homeodomain-interacting protein kinase 4 (HIPK4, Homo sapiens, UniProt Q8NE63)", "remaining activity": "107%"}
{"target": "Serine/threonine-protein kinase WNK3 (WNK3, Homo sapiens, UniProt Q9BYP7)", "remaining activity": "90%"}
{"target": "Homeodomain-interacting protein kinase 2 (HIPK2, Homo sapiens, UniProt Q9H2X6)", "remaining activity": "98.7%"}
{"target": "Tyrosine-protein kinase Blk (BLK, Homo sapiens, UniProt P51451)", "remaining activity": "93.5%"}
{"target": "Ribosomal protein S6 kinase alpha-5 (RPS6KA5, Homo sapiens, UniProt O75582)", "remaining activity": "58%"}
{"target": "Ephrin type-B receptor 4 (EPHB4, Homo sapiens, UniProt P54760)", "remaining activity": "88.2%"}
{"target": "Ribosomal protein S6 kinase alpha-6 (RPS6KA6, Homo sapiens, UniProt Q9UK32)", "remaining activity": "33.9%"}
{"target": "Tyrosine-protein kinase receptor UFO (AXL, Homo sapiens, UniProt P30530)", "remaining activity": "81.9%"}
{"data": "Sample 3", "cell line": "mouse MPNST tumor cells", "method": "high-content immunofluorescence imaging", "refers to": "nuclear SOX9", "concentration": "10 µM", "time": "12 h", "setting": "mean of 2 replicates", "relative to": "DMSO control", "reading": "higher = more nuclear SOX9"}
{"SMILES": "CCC(c1ccc(F)c(F)c1)n1c(C(=O)OC)c(-c2ccno2)[nH]c1=S (centres unmarked)", "nuclear SOX9 intensity": "95.6 % of DMSO"}
{"SMILES": "NC(=O)c1ccc(Oc2ccc(C(N)=O)cc2)cc1", "nuclear SOX9 intensity": "94.9 % of DMSO"}
{"SMILES": "O=C(Nc1ccc(C(F)(F)F)cn1)N1CCN(c2ncccc2C(F)(F)F)CC1", "nuclear SOX9 intensity": "118 % of DMSO"}
{"SMILES": "CC1(C)S[C@@H]2[C@H](NC(=O)Cc3ccccc3)C(=O)N2[C@H]1C(=O)O", "nuclear SOX9 intensity": "98 % of DMSO"}
{"SMILES": "CC(C)NC(=O)Cn1c(-c2ccc(F)c(Cl)c2)nc2ncc(OCCCN3CCOCC3)cc2c1=O", "nuclear SOX9 intensity": "99.2 % of DMSO"}
{"SMILES": "CN(C)CCCN1c2ccccc2Sc2ccccc21", "nuclear SOX9 intensity": "142 % of DMSO"}
{"SMILES": "N#CN=C(NCCCCCCOc1ccc(Cl)cc1)Nc1ccncc1", "nuclear SOX9 intensity": "117 % of DMSO"}
{"data": "Sample 4", "target": "Diamine acetyltransferase 1 (Homo sapiens, UniProt P21673)", "action": "inhibitor", "concentration": "10 µM", "relative to": "control", "Residues (P21673 1-171)": "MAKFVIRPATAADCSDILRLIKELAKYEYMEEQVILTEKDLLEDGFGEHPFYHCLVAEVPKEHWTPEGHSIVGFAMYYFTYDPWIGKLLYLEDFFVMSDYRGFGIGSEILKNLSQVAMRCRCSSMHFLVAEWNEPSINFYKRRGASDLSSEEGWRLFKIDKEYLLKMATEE"}
{"SMILES": "COc1ccc(-c2cc(=O)c3c(O)cc(O[C@@H]4O[C@H](CO)[C@@H](O)[C@H](O)[C@H]4O)cc3o2)cc1O", "remaining activity [%]": 110}
{"SMILES": "O=c1cc(-c2ccc(O)cc2)oc2cc(O[C@@H]3O[C@H](CO)[C@@H](O)[C@H](O)[C@H]3O)cc(O)c12", "remaining activity [%]": 96.4}
{"SMILES": "CCCCCCCCCCCCCCCCCCCCCCC(=O)O", "remaining activity [%]": 89.2}
{"SMILES": "CCCCC/C=C\\C/C=C\\CCCCCCCC(=O)OC", "remaining activity [%]": 96.8}
{"SMILES": "CCCCC(CC)COC(=O)c1ccccc1C(=O)O (centres unmarked)", "remaining activity [%]": 95.6}
{"SMILES": "O=c1ccc2ccccc2o1", "remaining activity [%]": 99}
{"SMILES": "O=c1ccn([C@@H]2O[C@H](CO)[C@@H](O)[C@H]2O)c(=O)[nH]1", "remaining activity [%]": 107}
